Measured values pooled from the literature.
Numbered parts are unrelated; each lists some results of a single study. Positions count from the first letter of the parent shown.

Sample 1
Target: CCND2, cyclin fold, Cln2 fusion (human)
Technique: yeast growth competition, sequencing
Matrix: yeast
Setting: weak parent motif
Relative to: not given
Direction: higher = stronger binding
Quantity: normalised enrichment score
Parent: E2F1 docking peptide (human); PPVKRRLDLETDH; partner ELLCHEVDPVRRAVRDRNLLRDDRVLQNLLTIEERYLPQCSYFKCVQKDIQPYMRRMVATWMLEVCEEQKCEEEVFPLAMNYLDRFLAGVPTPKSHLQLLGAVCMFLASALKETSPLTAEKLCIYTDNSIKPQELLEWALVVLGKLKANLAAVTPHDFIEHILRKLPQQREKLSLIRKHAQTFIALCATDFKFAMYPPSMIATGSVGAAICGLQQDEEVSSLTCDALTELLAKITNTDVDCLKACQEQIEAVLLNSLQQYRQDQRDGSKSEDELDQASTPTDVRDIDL
Change = D8Y; result = -0.0182
Change = R6I; result = 0.198
Change = H13C; result = 0.0942
Change = D8W; result = 0.19
Change = P2H; result = 0.404
Change = P1M; result = 0.48
Change = D12H; result = -0.0734
Change = E10K; result = -0.361
Change = K4I; result = 0.223
Change = H13W; result = 0.385
Change = R5N; result = 0.266

Sample 2
Target: Histone acetyltransferase KAT6A, both winged helices, GST fusion (KAT6A, Homo sapiens, UniProt Q92794, residues 1-181)
Technique: protein binding microarray
Form: double-stranded DNA, one strand shown
Matrix: in vitro
Concentration: not given
Setting: 8-mer, flanks averaged, mean of 2 arrays, mostly near background
Relative to: not given
Direction: higher = stronger binding
Quantity: E-score
Construct (chain): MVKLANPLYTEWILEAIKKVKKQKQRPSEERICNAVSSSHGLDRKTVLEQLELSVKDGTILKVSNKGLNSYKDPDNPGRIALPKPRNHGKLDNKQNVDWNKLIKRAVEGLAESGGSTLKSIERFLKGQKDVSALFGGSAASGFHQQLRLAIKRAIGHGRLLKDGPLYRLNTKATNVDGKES
Sequence = ACATGTCC; result = 0.0517
Sequence = AGCGGCGG; result = 0.351
Sequence = CCGCATAG; result = 0.222
Sequence = TACTAGAA; result = 0.03
Sequence = CTAGTGGA; result = -0.165
Sequence = GATGTAAC; result = 0.136
Sequence = CGTGATCA; result = 0.0657
Sequence = TCATATCA; result = -0.0737
Sequence = GGGACAGA; result = 0.0204
Sequence = ACATTCCC; result = 0.03
Sequence = CCTTCGAA; result = -0.073
Sequence = ACTGCAAC; result = -0.101
Sequence = TAATGGGA; result = -0.18
Sequence = CTGAACAC; result = -0.016
Sequence = TAAATACA; result = 0.0336
Sequence = ATGGCCAG; result = -0.137
Sequence = ATCTGTGG; result = -0.143

Sample 3
Target: Interferon regulatory factor 7, full length, phosphomimetic (IRF7, Homo sapiens, UniProt Q92985, residues 1-503, S101K/S471D/S472D/S475D/S476D/S477D/S483D/S484D/S487D)
Technique: protein-binding microarray
Form: double-stranded DNA, one strand shown
Matrix: in vitro
Concentration: 250 nM
Setting: 60-bp whole probe
With: salmon DNA 0.4 mg/ml
Relative to: random background probes
Direction: higher = stronger binding
Quantity: log fluorescence
Constant ends, left off below: GCCTAGCAC … GTCTTGATTCGCTTGACGCTGCTG
Residues (chain): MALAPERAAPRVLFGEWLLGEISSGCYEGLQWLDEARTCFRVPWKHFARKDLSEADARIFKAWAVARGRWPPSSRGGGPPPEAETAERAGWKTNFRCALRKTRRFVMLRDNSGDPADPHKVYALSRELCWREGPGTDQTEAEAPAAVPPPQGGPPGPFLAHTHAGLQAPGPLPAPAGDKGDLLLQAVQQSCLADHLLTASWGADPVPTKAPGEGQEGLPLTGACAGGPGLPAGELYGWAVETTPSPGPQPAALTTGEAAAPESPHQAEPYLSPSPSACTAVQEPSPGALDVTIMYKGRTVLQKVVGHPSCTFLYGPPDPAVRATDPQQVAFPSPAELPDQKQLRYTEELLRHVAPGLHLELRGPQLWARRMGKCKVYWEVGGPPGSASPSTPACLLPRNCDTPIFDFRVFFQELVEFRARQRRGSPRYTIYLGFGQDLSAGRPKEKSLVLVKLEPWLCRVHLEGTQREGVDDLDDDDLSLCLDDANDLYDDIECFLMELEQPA
Sequence = GACGGACTGCTTCGCCTGACGTGCTAG; result = -0.427 z-score
Sequence = CTAGGACTGGGTTTCGGTTAGTGCTAG; result = 6.92 z-score
Sequence = TTAGGTATCCTTTCCCTTTAGTGCTAG; result = 1.18 z-score
Sequence = GACGGACTGGGACTGGGGGCGTGCTAG; result = 0.336 z-score
Sequence = GACGGTCTCGGTTGCGGGACGTGCTAG; result = 1.23 z-score
Sequence = ATTTTTTTGTAATCGAAATCTGTGCTA; result = 0.792 z-score
Sequence = GACGGACTTGGGTTTCGGGACGTGCTA; result = 1.63 z-score
Sequence = TTAGATCTCAGGTTCGATTAGTGCTAG; result = 1.59 z-score
Sequence = TTAGGTATCTTACTGCTTTAGTGCTAG; result = -0.245 z-score
Sequence = TTAGGTGTCGGACTGGGTTAGTGCTAG; result = -0.478 z-score
Sequence = TTAGGTTTCCTTTTGCTTTAGTGCTAG; result = 8.27 z-score
Sequence = TCATTTTTCTATATGCAACTGTGCTAG; result = 2.22 z-score
Sequence = TTAGGTCTCCTTTTCCATTAGTGCTAG; result = 1.99 z-score
Sequence = GACGGTCTCGGTCTCGGGAGGTGCTAG; result = 0.629 z-score
Sequence = TTAGATCTCAGTATCGATAAGTGCTAG; result = 0.44 z-score
Sequence = GACGAACTGGTGTTTCGAGACGTGCTA; result = 0.558 z-score
Sequence = GACGCTTTCGGGACTGGGGACGTGCTA; result = 0.627 z-score

Further values, each from its own experiment
Molecule = PhoQ, residues 284 288 289 292 302 303 SACGEM; target = PhoP, residues 12 14 15 18 19 AQCLL (Escherichia coli, UniProt P23836); assay = Sort-seq, item: YFP reporter; test system = E. coli; conditions = PhoQ-PhoP variant library, with: 10 µM Mg2+; scale = relative to: high Mg2+ state, higher = stronger signaling; quantity = fold induction; result = 4.24

Excerpt of the above (sample 3):
Sequence = TCATTTTTCTATATGCAACTGTGCTAG; result = 2.22 z-score
Sequence = ATTTTTTTGTAATCGAAATCTGTGCTA; result = 0.792 z-score
Sequence = CTAGGACTGGGTTTCGGTTAGTGCTAG; result = 6.92 z-score
Sequence = TTAGGTATCCTTTCCCTTTAGTGCTAG; result = 1.18 z-score
Sequence = TTAGATCTCAGGTTCGATTAGTGCTAG; result = 1.59 z-score
Sequence = GACGGACTGCTTCGCCTGACGTGCTAG; result = -0.427 z-score
